Published values collected from several papers.
Each line is one published result; not all experiments were run side by side. Values joined by “and” are separate records of one study, mostly repeats; a detail may differ. ± gives the spread as reported.
Chain of UniProt P06276 (whole entry, looked up): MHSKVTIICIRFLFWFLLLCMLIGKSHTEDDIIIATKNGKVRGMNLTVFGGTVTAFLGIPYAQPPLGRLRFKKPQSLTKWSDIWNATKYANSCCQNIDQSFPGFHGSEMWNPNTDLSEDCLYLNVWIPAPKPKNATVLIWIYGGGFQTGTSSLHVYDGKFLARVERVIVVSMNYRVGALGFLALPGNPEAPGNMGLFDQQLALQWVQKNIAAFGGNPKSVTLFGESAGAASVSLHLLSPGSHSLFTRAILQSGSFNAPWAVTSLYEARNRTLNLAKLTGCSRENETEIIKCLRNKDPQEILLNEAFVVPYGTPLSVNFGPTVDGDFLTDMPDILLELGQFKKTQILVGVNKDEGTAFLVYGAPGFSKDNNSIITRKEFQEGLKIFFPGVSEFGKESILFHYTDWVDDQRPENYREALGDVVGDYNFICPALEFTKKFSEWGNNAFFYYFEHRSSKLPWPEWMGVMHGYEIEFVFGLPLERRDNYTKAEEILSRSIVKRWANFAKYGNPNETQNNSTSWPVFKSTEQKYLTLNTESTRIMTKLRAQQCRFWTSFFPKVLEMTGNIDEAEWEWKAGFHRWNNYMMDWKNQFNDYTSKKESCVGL
Chain of UniProt Q15759 (whole entry, looked up): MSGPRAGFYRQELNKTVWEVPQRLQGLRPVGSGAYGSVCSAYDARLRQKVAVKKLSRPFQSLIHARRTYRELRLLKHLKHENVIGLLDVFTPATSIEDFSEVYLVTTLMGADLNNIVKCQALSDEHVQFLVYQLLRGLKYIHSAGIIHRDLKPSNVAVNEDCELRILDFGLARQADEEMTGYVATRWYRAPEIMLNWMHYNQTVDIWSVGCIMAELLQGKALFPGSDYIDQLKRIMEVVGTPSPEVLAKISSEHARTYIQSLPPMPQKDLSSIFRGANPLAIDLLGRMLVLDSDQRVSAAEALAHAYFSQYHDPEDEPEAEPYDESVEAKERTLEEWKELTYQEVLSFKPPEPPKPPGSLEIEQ

Structure (SMILES)	tested on	assay	system	conditions	scale	measurement	value
CP(=O)(O)CCCN	Plasmodium falciparum	–	D10	–	–	IC50	2000 nM
COc1cc2c(Oc3ccc4[nH]c(C)cc4c3F)ccnc2cc1OCC1(N)CC1	–	–	paediatric recurrent refractory sarcoma	8 mg	–	grade 3 Anorexia	0%
CO[C@H]1C[C@@H]2CC[C@@H](C)[C@@](O)(O2)C(=O)C(=O)N2CCCC[C@H]2C(=O)O[C@H]([C@H](C)C[C@@H]2CC[C@@H](OC(=O)NCCOCCOCCOCCOCCOCCOCCOCCOCCC(=O)N3CCc4cc(Cn5nc(-c6ccc7oc(N)nc7c6)c6c(N)ncnc65)ccc4C3)[C@H](OC)C2)C[C@@H](O)[C@H](C)/C=C(\C)[C@@H](O)[C@@H](OC)C(=O)[C@H](C)C[C@H](C)/C=C/C=C/C=C/1C	–	–	patients with advanced solid tumours	intravenous, 12 mg weekly, grade 3 or higher	–	headache incidence	0%
OCc1ncc2n1-c1ccc(Cl)cc1C(c1ccccc1F)=NC2	CYP3A4 (human)	–	human, plasma	oral, 2 mg midazolam, probe alone Day -7	reference: 1-hydroxymidazolam over midazolam	metabolite to parent Cmax ratio	4.56
CCCC[C@H](NC(C)=O)C(=O)N[C@@H](CO)C(=O)N[C@H](C(=O)N1CCC[C@H]1C(=O)N[C@@H](C)C(=O)N[C@@H](CCCNC(=N)N)C(=O)N[C@@H](CCCNC(=N)N)C(=O)N[C@@H](CCCNC(=N)N)C(=O)N[C@@H](CC(C)C)C(=O)N[C@@H](CCCC)C(=O)N[C@@H](CCCNC(=N)N)C(=O)N[C@@H](CC(=O)O)C(=O)N[C@@H](Cc1ccccc1)C(=O)N[C@@H](CCCCN)C(=O)N[C@@H](CCCNC(=N)N)C(=O)N[C@@H](CC(C)C)C(=O)N[C@@H](CCC(N)=O)C(N)=O)[C@@H](C)O	proteinase K	LC-MS	–	25 µM, 81.9 min, pH 7.4	–	remaining peptide	2.6%
CC(=O)N1CCC(C(=O)N2CCN3C(=O)c4cc(-c5ccccc5)ccc4NC(=O)C3C2)CC1 (stereo not shown)	Escherichia coli	–	WP2 uvrA	1.58 µg/plate, without S9	–	revertants per plate	23.5
CCOC(=O)C1(CCOc2ccccc2)CCN(Cc2ccc(O)c(Cl)c2)CC1	Cholinesterase (BCHE, Homo sapiens, UniProt P06276)	inhibitor, fluorometric	–	–	–	IC50	23700 ± 12900 nM
O=c1ccc2ccccc2o1	HepG2	measured: mitochondrial reserve capacity	–	1 h, Seahorse mitochondrial toxicity panel	–	point of departure	8.29 µM
COc1cccc(-c2n[nH]c(SCc3ccccn3)n2)c1OC	Salmonella typhimurium	Ames test, preincubation	TA100	0.031 mg/plate, with rat liver S9	–	revertant colonies per plate	146
Nc1ncnc2c([C@@H]3N[C@H](CO)[C@@H](O)[C@H]3O)c[nH]c12	HeLa	–	–	0.8 µM	–	cell number	4370 and 5520
C[C@@H]1CC[C@H]2[C@@H](C)C(=O)O[C@@H]3O[C@@]4(C)CC[C@@H]1[C@]32OO4	Plasmodium falciparum	cell growth	W2	–	–	IC50	11 nM
Cc1cc(C(=O)NC(C)(C)COc2cccc3c2C(N)=NS(=O)(=O)N3)cc(C)n1	Salmonella typhimurium	Ames test, initial	TA1537	5.00 µg/plate	reference: solvent control	revertant ratio	1
C[C@H]1CN(c2n[nH]c3nc(N[C@H]4CC[C@H](NS(=O)(=O)CCC(F)(F)F)CC4)ncc23)CCO1	MAPK11 (Homo sapiens, UniProt Q15759)	Kinobeads competition	HEK293/K562/placenta extract	–	–	IC50	240 nM
